Results collected from several papers.
Every numbered part comes from another study and shows a few of its results, in no order. Values joined by “and” are separate records of one study, mostly repeats; a detail may differ.

Study 1 — read-out: cell-free assay; tested at: 10 µM
Target: 5-hydroxytryptamine receptor 1E (HTR1E, Homo sapiens, UniProt P28566)
Sequence of UniProt P28566 (whole entry, looked up): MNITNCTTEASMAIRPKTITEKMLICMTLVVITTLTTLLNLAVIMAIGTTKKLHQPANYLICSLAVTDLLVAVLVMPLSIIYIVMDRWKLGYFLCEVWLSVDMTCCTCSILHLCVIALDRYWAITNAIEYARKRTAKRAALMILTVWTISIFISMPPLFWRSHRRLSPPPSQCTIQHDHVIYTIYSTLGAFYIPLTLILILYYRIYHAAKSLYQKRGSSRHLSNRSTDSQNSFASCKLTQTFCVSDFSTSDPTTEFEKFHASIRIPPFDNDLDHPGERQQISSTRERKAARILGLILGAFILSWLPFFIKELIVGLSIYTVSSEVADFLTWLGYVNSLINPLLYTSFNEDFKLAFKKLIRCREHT
| Structure (SMILES) | inhibition |
| --- | --- |
| Nc1nc(NCc2ccccc2)nc(-c2cccc(CO)c2)n1 | -23.9% |
| O=C(NNS(=O)(=O)c1ccccc1)c1cc(-c2ccnnc2)ccc1F | 13.1% |
| CCC(F)(F)c1cc(N2CCC(S(C)(=O)=O)CC2)nc2sc(C(N)=O)c(N)c12 | 1.69% |
| COc1cccc(NC(=O)c2nc3scc(CN(C)Cc4ccccc4)c3c(=O)[nH]2)c1 | -0.688% |
| CNC(=O)Nc1ccc2c(c1)CC[C@]21OC(=O)N(CC(=O)N(Cc2ccc(F)cc2)[C@@H](C)C(F)(F)F)C1=O | 4.23% |
| COc1cc(C(=O)O)ncc1C#Cc1ccccc1NS(=O)(=O)c1cccc2c(N(C)C)ccnc12 | 20.6% |
| O=C(Nc1ccc(Oc2ccc(F)cc2)cc1)N1CCc2ncccc2[C@H]1c1ccc(F)cc1 | 1.61% |
| Cc1noc([C@H]2C[C@@H](c3ccc(C(F)(F)F)cc3)CN(C(=O)N3CCS(=O)(=O)C3)C2)n1 | 21.5% |
| O=C(Nc1cccnn1)N1CC(CC=Cc2cncc(Oc3ccc(C(F)(F)F)cn3)n2)C1 | 0.84% |
| CN1C(=O)[C@@H](N2CCc3c(nn(Cc4ccccc4)c3Br)C2=O)COc2ccccc21 | -15% |
| Cc1ccccc1Oc1cc(-n2c(=O)cc(C(F)(F)F)[nH]c2=O)c2ccccc2c1Cl | 4.31% |
| COCCc1ccc(-c2c(C)nc3c(N4CCOCC4)ccnn23)cn1 | -16.2% |
| N#CC1(c2ccccn2)CCN(Cc2cc(C(=O)N3CCCC3)c(=O)n3ccccc23)CC1 | -3.26% |
| CC1CCN(c2ccnc(NCc3cn(C)cn3)n2)CC1 | 3.36% |
| CN(C)[C@H]1CCN(c2cc(-c3ccccc3)nc3ccnn23)C1 | -16.4% |
| NC(=O)c1ccc2nc(-c3ccc(C4(N)CCC4)cc3)c(-c3ccccc3)n2n1 | -13.6% |
| NS(=O)(=O)c1cc(NC(=O)Cc2ccccc2)ccc1Oc1cccc(Cl)c1 | -12.7% |
| CC1=C(C#N)C(c2ccc3[nH]nc(C)c3c2)C(C#N)=C(C)N1 | 8.21% |
| COCc1nc2cnc3cc(-c4c(C)noc4C)c(OC[C@H]4CCNC4)cc3c2n1[C@H](C)c1ccccc1 | -19.5% |

Study 2 — cell line: mouse MPNST tumor cells; technique: high-content nuclear imaging; measured: cell number; tested at: 10 µM; time: 12 h; setting: mean of 2 replicates; baseline: plate mean; direction: higher = more cells
| Structure (SMILES) | nuclei count |
| --- | --- |
| CCS(=O)(=O)c1ncc(Cl)c(C(=O)N(Cc2ccc(Cl)cc2)Cc2ccco2)n1 | -5.32 z-score |
| Cc1cc([N+](=O)[O-])ccc1NS(=O)(=O)c1cc(Cl)ccc1Cl | 2.33 z-score |
| Cc1cc(C)c2c(N)c(C(=O)NCc3ccc(Cl)cc3)sc2n1 | 1.93 z-score |
| Cc1ccc(-c2cc(C(F)(F)F)nn2-c2ccc(S(N)(=O)=O)cc2)cc1 | 1.49 z-score and 1.94 z-score |

Study 3 — read-out: enzyme activity; mode: inhibitor; tested at: 77 µM; baseline: untreated
Target: DNA polymerase theta, ATPase domain (POLQ, Homo sapiens, UniProt O75417)
Sequence of UniProt O75417 (whole entry, unmodified, looked up): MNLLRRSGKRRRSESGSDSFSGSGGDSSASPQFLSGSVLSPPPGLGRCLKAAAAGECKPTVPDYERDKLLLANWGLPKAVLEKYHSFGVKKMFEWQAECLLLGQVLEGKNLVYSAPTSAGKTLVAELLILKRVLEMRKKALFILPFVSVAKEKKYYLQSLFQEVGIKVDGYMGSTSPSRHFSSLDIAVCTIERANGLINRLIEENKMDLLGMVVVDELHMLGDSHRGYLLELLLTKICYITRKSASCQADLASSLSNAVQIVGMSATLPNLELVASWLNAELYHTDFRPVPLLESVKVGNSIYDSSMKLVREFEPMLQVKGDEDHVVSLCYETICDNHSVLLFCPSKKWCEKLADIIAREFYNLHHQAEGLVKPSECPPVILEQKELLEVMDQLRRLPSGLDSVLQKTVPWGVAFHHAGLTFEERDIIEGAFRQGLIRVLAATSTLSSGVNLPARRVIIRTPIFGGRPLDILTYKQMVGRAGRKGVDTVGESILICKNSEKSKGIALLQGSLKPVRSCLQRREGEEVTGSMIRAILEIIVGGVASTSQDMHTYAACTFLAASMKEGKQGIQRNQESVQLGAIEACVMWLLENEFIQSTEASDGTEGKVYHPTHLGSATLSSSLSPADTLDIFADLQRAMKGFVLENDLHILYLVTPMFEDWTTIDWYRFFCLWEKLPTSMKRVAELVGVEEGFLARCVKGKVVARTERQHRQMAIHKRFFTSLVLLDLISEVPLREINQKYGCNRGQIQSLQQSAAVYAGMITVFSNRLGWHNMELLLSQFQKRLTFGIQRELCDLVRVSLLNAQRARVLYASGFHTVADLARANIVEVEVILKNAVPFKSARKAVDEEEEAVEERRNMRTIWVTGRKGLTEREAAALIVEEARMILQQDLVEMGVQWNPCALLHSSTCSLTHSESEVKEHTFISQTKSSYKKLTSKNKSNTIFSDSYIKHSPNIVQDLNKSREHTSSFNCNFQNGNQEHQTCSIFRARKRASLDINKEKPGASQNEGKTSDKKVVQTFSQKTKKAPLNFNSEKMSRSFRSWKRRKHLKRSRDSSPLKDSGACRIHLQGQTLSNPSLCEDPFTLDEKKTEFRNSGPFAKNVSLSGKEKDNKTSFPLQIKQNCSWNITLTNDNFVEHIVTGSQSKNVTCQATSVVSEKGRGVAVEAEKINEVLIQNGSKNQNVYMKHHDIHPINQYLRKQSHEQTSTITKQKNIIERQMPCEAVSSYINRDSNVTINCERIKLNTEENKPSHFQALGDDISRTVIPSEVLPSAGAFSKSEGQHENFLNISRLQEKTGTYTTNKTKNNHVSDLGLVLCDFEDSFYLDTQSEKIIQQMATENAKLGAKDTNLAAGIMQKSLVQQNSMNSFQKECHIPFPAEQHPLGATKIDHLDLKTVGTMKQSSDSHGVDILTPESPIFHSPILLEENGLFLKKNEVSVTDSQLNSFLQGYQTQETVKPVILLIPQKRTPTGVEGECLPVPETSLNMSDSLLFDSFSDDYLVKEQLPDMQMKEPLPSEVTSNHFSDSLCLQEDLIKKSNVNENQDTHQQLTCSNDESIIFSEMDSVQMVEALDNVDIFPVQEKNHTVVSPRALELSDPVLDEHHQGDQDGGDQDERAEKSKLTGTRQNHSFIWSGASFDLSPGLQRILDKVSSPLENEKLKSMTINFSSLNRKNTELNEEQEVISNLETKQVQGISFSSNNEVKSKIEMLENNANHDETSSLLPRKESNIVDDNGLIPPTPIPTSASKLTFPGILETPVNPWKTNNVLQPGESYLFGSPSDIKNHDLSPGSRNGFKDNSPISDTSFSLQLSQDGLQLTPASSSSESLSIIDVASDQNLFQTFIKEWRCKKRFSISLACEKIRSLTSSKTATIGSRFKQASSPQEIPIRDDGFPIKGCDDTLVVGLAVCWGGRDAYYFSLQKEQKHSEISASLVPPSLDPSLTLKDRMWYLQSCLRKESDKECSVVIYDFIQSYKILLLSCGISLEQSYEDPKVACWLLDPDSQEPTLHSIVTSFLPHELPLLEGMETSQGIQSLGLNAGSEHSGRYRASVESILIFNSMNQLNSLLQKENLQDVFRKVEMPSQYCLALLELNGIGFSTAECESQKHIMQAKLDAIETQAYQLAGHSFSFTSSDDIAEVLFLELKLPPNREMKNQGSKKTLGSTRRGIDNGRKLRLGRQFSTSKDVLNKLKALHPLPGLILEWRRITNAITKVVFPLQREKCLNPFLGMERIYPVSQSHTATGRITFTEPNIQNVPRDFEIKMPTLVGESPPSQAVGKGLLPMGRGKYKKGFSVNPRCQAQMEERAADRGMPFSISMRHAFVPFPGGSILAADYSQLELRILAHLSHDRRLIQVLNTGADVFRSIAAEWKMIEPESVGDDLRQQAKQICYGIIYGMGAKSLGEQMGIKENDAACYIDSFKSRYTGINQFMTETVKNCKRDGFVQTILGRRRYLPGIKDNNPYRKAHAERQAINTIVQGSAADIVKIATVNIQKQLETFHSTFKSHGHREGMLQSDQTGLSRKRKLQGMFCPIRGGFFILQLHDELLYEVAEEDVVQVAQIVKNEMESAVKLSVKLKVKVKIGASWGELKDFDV
| SMILES | remaining activity |
| --- | --- |
| COc1ccccc1Oc1c(NS(=O)(=O)c2ccc(C(C)(C)C)cc2)nc(-c2ncccn2)nc1OCCO | 77% and 97% |
| N=C(NC(=O)c1nc(Cl)c(N)nc1N)Nc1ccccc1 | 100% |
| C[C@@H]1O[C@@H]1P(=O)(O)O | 94.2% |
| O=C(Nc1cc(C(F)(F)F)ccc1N1CCCCC1)c1ccncc1 | 101% |
| O=C(CCCc1ccc(-c2ccccc2F)cc1)Nc1ccc(O)cc1 | 106% |

Study 4 — species: mouse; medium: microsomes or S9; tested at: 2 µM; time: 0.5 h
| Structure (SMILES) | remaining compound [%] |
| --- | --- |
| COC(=O)c1cc(Cl)ccc1C1CCN(CCN2CCc3ccccc3C2=O)CC1 | 0.668 |
| CC(C)Cc1csc2nc(O)n3nc(-c4ccco4)nc3c12 | 54.6 |
| CCn1cc(-c2cc(C(F)F)n3nc(C)cc3n2)c(C)n1 | 0.0579 |
| CCc1ccc(NC(=O)N2Cc3c(sc4c3CCCC4)-n3cccc3C2C(C)C)cc1 (stereo not drawn) | 29.6 |
| Clc1ncccc1-c1nc2cc3c(cc2c2ccnn12)OCO3 | < 1 |
| O[C@@H]1C[C@@H](c2nnc3n2CCOC3)C[C@@H]1CNc1ncc(Cl)cn1 | 84.5 |

Study 5 — cell line: A-375; tested at: 100 µM; time: 36 h
| Compound | viability [%] |
| --- | --- |
| N=c1ccn2c(n1)O[C@H]1[C@H](O)[C@@H](CO)O[C@H]12 | 45.2 |
| CC(C(O)c1ccc(O)cc1)N1CCC(Cc2ccccc2)CC1 (stereo not drawn) | 60.9 |
| CCOc1cc(N)c(Cl)cc1C(=O)NCC1CN(Cc2ccc(F)cc2)CCO1 (stereo not drawn) | 73.7 |
| NC(=O)c1cccnc1 | 101 |
| COc1ccc(CN2CCN(C(c3ccc(F)cc3)c3ccc(F)cc3)CC2)c(OC)c1OC | 34.1 |

For quick reference, copied from above (study 3):
| SMILES | remaining activity |
| --- | --- |
| N=C(NC(=O)c1nc(Cl)c(N)nc1N)Nc1ccccc1 | 100% |
| O=C(Nc1cc(C(F)(F)F)ccc1N1CCCCC1)c1ccncc1 | 101% |
